{"data": "Measured values gathered from unrelated publications", "note": "± gives the spread as reported."}
{"Compound": "Cc1cc(O)cc(C)c1C[C@H](NC(=O)[C@@H]1CCCN1C(=O)[C@H](CCCNC(=N)N)NC(=O)[C@H](CCCNC(=N)N)N(C)C(=O)[C@@H]1CCCN1C(=O)[C@H](CCCCN)NC(=O)[C@@H](CC(C)C)NC(=O)[C@@H](CC(C)C)NC(=O)[C@@H](CC(C)C)NC(=O)[C@@H](CC(C)C)NC(=O)CN1CCN(CC(=O)O)CCN(CC(=O)O)CCN(CC(=O)O)CC1)C(=O)N[C@H](C(=O)N[C@@H](CC(C)C)C(=O)O)C(C)(C)C [lutetium-177 labelled]", "host": "CF-1 mouse", "medium": "kidney", "route": "iv", "dose": "370 kBq", "time": "1 h", "tissue uptake": "69 ± 6.22 %ID/g"}
{"Compound": "N=C(N)NCCC[C@@H]1NC(=O)[C@H](CCCCNC(=O)CNC(=O)CNC(=O)CNC(=O)CC[C@H](NC(=O)CNC(=O)CNC(=O)CNC(=O)CN2CCN(CC(=O)O)CCN(CC(=O)O)CCN(CC(=O)O)CC2)C(=O)NCC(=O)NCC(=O)NCC(=O)NCCCC[C@@H]2NC(=O)[C@@H](Cc3ccccc3)NC(=O)[C@H](CC(=O)O)NC(=O)CNC(=O)[C@H](CCCNC(=N)N)NC2=O)NC(=O)[C@@H](Cc2ccccc2)NC(=O)[C@H](CC(=O)O)NC(=O)CNC1=O [copper-64 labelled]", "host": "athymic nude mouse, female", "medium": "whole blood", "route": "iv", "time": "4 h", "tissue uptake": "0.46 ± 0.15 %ID/g"}
{"Compound": "CC(C)C[C@H](NC(=O)CN1CCN(CC(=O)O)CCN(CC(=O)O)CC1)C(=O)N[C@@H](CC(C)C)C(=O)N[C@@H](CC(C)C)C(=O)N[C@@H](CC(C)C)C(=O)N[C@@H](CCCNC(=N)N)C(=O)N[C@H](C(=O)N[C@@H](CCCCN)C(=O)N[C@@H](CCCNC(=N)N)C(N)=O)C(C)C [copper-64 labelled]", "host": "CD1 mouse, male", "medium": "liver", "route": "intravenous", "time": "15 min", "notes": "blocked, unlabelled peptide 0.1 µmol", "tissue uptake": "7 ± 1 %ID/g"}
{"Compound": "Cc1cc(O)cc(C)c1C[C@H](NC(=O)[C@@H]1CCCN1C(=O)[C@H](CCCNC(=N)N)NC(=O)[C@H](CCCNC(=N)N)N(C)C(=O)[C@@H]1CCCN1C(=O)[C@@H](CC(C)C)NC(=O)[C@@H](CC(C)C)NC(=O)[C@@H](CC(C)C)NC(=O)[C@@H](CC(C)C)NC(=O)[C@H](CCCCN)NC(=O)CN1CCN(CC(=O)O)CCN(CC(=O)O)CCN(CC(=O)O)CC1)C(=O)N[C@H](C(=O)N[C@@H](CC(C)C)C(=O)O)C(C)(C)C [lutetium-177 labelled]", "host": "CF-1 mouse", "medium": "kidney", "route": "iv", "dose": "370 kBq", "time": "24 h", "tissue uptake": "77.8 ± 10.2 %ID/g"}
{"Compound": "N=C(N)NCCC[C@@H]1NC(=O)[C@H](CCCCNC(=O)CCOCCOCCOCCOCCNC(=O)CC[C@H](NC(=O)CCOCCOCCOCCOCCNC(=O)CN2CCN(CC(=O)O)CCN(CC(=O)O)CCN(CC(=O)O)CC2)C(=O)NCCOCCOCCOCCOCCC(=O)NCCCC[C@@H]2NC(=O)[C@@H](Cc3ccccc3)NC(=O)[C@H](CC(=O)O)NC(=O)CNC(=O)[C@H](CCCNC(=N)N)NC2=O)NC(=O)[C@@H](Cc2ccccc2)NC(=O)[C@H](CC(=O)O)NC(=O)CNC1=O [copper-64 labelled]", "host": "athymic nu/nu mouse, female", "medium": "liver", "route": "intravenous", "time": "4 h", "tissue uptake": "1.87 ± 0.51 %ID/g"}
{"Compound": "CC(C)[C@H](NC(=O)[C@@H]1CCCN1C(=O)[C@H](CCCNC(=N)N)NC(=O)[C@H](CS)NC(=O)[C@H](Cc1c[nH]c2ccccc12)NC(=O)[C@H](CCCNC(=N)N)NC(=O)[C@@H](Cc1ccccc1)NC(=O)[C@H](Cc1c[nH]cn1)NC(=O)[C@H](CCC(=O)O)NC(=O)[C@H](CS)NC(=O)[C@H](CS)NC(=O)[C@H](CCCCN)NC(=O)[C@@H]1CC(=O)N[C@@H](CCCNC(=N)N)C(=O)N[C@H](Cc2ccccc2)C(=O)N[C@@H](CC(=O)O)C(=O)N[C@H](Cc2ccc(O)cc2)C(=O)N1)C(N)=O [technetium-99m labelled]", "host": "C57 mouse, female", "medium": "intestine", "route": "intravenous", "dose": "0.037 MBq", "time": "4 h", "tissue uptake": "3.18 ± 1.08 %ID"}
{"Compound": "CSCC[C@H](NC(=O)[C@H](CC(C)C)NC(=O)[C@H](Cc1c[nH]cn1)NC(=O)CNC(=O)[C@@H](NC(=O)[C@H](C)NC(=O)[C@H](Cc1c[nH]c2ccccc12)NC(=O)[C@H](CCC(N)=O)NC(=O)CCOCCOCCOCCOCCNC(=O)CN1CCN(CC(=O)O)CCN(CC(=O)O)CCN(CC(=O)O)CC1)C(C)C)C(N)=O [indium-111 labelled]", "host": "Swiss nu/nu mouse, male, PC-3 tumour xenograft", "medium": "pancreas", "route": "intravenous", "dose": "10 pmol", "time": "4 h", "tissue uptake": "17.5 ± 2.8 %ID/g"}
{"Compound": "CCCC[C@H](NC(=O)CNC(=O)CNC(=O)CN1CCN(CC(=O)O)CCN(CC(=O)O)CC1)C(=O)N[C@H]1CC(=O)NCCCC[C@@H](C(N)=O)NC(=O)[C@H](Cc2c[nH]c3ccccc23)NC(=O)[C@H](CCCNC(=N)N)NC(=O)[C@@H](Cc2ccccc2)NC(=O)[C@H](Cc2c[nH]cn2)NC1=O [technetium-99m labelled]", "host": "C57 mouse", "medium": "tumor", "route": "iv", "dose": "0.037 MBq", "time": "2 h", "tissue uptake": "19.8 ± 3.62 %ID/g"}
{"Compound": "Cc1cc(O)cc(C)c1C[C@H](NC(=O)[C@@H]1CCCN1C(=O)[C@H](CCCNC(=N)N)NC(=O)[C@H](CCCNC(=N)N)N(C)C(=O)[C@@H]1CCCN1C(=O)[C@@H](CC(C)C)NC(=O)[C@@H](CC(C)C)NC(=O)[C@H](CCCCN)NC(=O)[C@@H](CC(C)C)NC(=O)[C@@H](CC(C)C)NC(=O)CN1CCN(CC(=O)O)CCN(CC(=O)O)CCN(CC(=O)O)CC1)C(=O)N[C@H](C(=O)N[C@@H](CC(C)C)C(=O)O)C(C)(C)C [lutetium-177 labelled]", "host": "CF-1 mouse", "medium": "kidney", "route": "iv", "dose": "370 kBq", "time": "1 h", "tissue uptake": "64.8 ± 10.8 %ID/g"}
{"Compound": "CCCC[C@H](NC(=O)CNC(=O)CNC(=O)CN1CCN(CC(=O)O)CCN(CC(=O)O)CCN(CC(=O)O)CC1)C(=O)N[C@H]1CC(=O)NCCCC[C@@H](C(N)=O)NC(=O)[C@H](Cc2c[nH]c3ccccc23)NC(=O)[C@H](CCCNC(=N)N)NC(=O)[C@@H](Cc2ccccc2)NC(=O)[C@H](Cc2c[nH]cn2)NC1=O [lutetium-177 labelled]", "host": "C57 mouse, female", "medium": "pancreas", "route": "intravenous", "dose": "0.037 MBq", "time": "0.5 h", "tissue uptake": "0.88 ± 0.32 %ID/g"}
{"note": "Some of these lines once more:"}
{"Compound": "N=C(N)NCCC[C@@H]1NC(=O)[C@H](CCCCNC(=O)CCOCCOCCOCCOCCNC(=O)CC[C@H](NC(=O)CCOCCOCCOCCOCCNC(=O)CN2CCN(CC(=O)O)CCN(CC(=O)O)CCN(CC(=O)O)CC2)C(=O)NCCOCCOCCOCCOCCC(=O)NCCCC[C@@H]2NC(=O)[C@@H](Cc3ccccc3)NC(=O)[C@H](CC(=O)O)NC(=O)CNC(=O)[C@H](CCCNC(=N)N)NC2=O)NC(=O)[C@@H](Cc2ccccc2)NC(=O)[C@H](CC(=O)O)NC(=O)CNC1=O [copper-64 labelled]", "host": "athymic nu/nu mouse, female", "medium": "liver", "route": "intravenous", "time": "4 h", "tissue uptake": "1.87 ± 0.51 %ID/g"}
{"Compound": "CSCC[C@H](NC(=O)[C@H](CC(C)C)NC(=O)[C@H](Cc1c[nH]cn1)NC(=O)CNC(=O)[C@@H](NC(=O)[C@H](C)NC(=O)[C@H](Cc1c[nH]c2ccccc12)NC(=O)[C@H](CCC(N)=O)NC(=O)CCOCCOCCOCCOCCNC(=O)CN1CCN(CC(=O)O)CCN(CC(=O)O)CCN(CC(=O)O)CC1)C(C)C)C(N)=O [indium-111 labelled]", "host": "Swiss nu/nu mouse, male, PC-3 tumour xenograft", "medium": "pancreas", "route": "intravenous", "dose": "10 pmol", "time": "4 h", "tissue uptake": "17.5 ± 2.8 %ID/g"}
